Assay results from different studies.
Each numbered part is a random draw from the data of one study; scales do not carry over between parts.

Block 1 — technique: universal PBM; form: double-stranded DNA, one strand shown; medium: in vitro; concentration: not given; reading: higher = stronger binding
Target: Sal-like protein 4, full length isoform B (SALL4, Homo sapiens, UniProt Q9UJQ4-2, residues 1-616)
Setting: 8-mer, flanks averaged, mean of replicates
| Oligonucleotide | E-score |
| --- | --- |
| AACGTCCA | 0.0998 |
| AACACAAA | 0.159 |
| AGGTATCG | 0.00086 |
| ATGGCGAC | -0.0554 |
| ACGAGAAA | 0.092 |
| AGCACGCT | -0.235 |
| GAAGCAAC | -0.00357 |
| CAGAATGA | 0.0758 |
| ACCGAACG | -0.169 |
| CACACAGG | 0.0026 |
| ACGAGGAC | -0.174 |
| CGCTTCAA | 0.0384 |
| GACGTTCC | -0.133 |
| CTGGTAAA | 0.0913 |
| CCGACTAA | -0.0143 |
| AATAATAG | 0.358 |
| GTTGCTCA | -0.066 |
| CCAACCAG | -0.253 |
| AGACTGCC | -0.11 |
| AAACTAGG | 0.00353 |
| CGCTCTAC | -0.0808 |
| AGGAAGAC | -0.129 |

Block 2 — technique: protein binding microarray; form: double-stranded DNA, one strand shown; medium: in vitro; concentration: not given; relative to: not given; reading: higher = stronger binding
Target: Histone acetyltransferase KAT6A, both winged helices, GST fusion (KAT6A, Homo sapiens, UniProt Q92794, residues 1-181)
Setting: 8-mer, flanks averaged, mean of 2 arrays, mostly near background
Target sequence (chain): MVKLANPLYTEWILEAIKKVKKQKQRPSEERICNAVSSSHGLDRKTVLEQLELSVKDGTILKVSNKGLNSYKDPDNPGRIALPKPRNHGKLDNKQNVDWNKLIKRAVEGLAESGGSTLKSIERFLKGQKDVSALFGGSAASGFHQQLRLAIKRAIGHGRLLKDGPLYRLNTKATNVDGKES
| Oligonucleotide | E-score |
| --- | --- |
| AATACGAT | 0.0325 |
| AAGCACCT | -0.285 |
| CCGTGCGA | 0.204 |
| GTCGACAC | 0.0316 |
| ACAAGCGA | 0.0032 |
| CGGTGTAA | 0.122 |
| ATGTGGTC | -0.249 |
| ATATTGCA | -0.14 |
| CTGACCAA | -0.0788 |
| GTATCATA | 0.0353 |
| TAGAAAGA | -0.0716 |
| GGAGGCGA | -0.0288 |
| ACTATATG | -0.141 |
| CTAGAAGC | 0.0121 |
| TAACGGTA | 0.121 |
| AGAACTCT | -0.0794 |
| AACCGCGA | 0.263 |
| GCCAGAAC | -0.098 |
| CCTCACTC | -0.205 |
| GTACCCCA | -0.0905 |
| CGCTTACA | 0.113 |
| CTATGAAG | -0.0419 |

Block 3 — technique: aptamer microarray, sandwich; form: DNA with 2'F-ANA; medium: in vitro; concentration: 200 nM; with: Cy3 exosite-II aptamer, 400 nM; reading: higher = stronger binding; oligonucleotide: GGTTGGTGTGGTTGG
Target: Prothrombin, mature alpha-thrombin (F2, Homo sapiens, UniProt P00734)
Setting: whole 15-mer aptamer, many near background
| Modification | mean fluorescence intensity [a.u.] |
| --- | --- |
| 2'F-ANA at 1 6 8 9 11 12 13 | 277 |
| 2'F-ANA at 1 2 3 6 7 10 12 15 | 91.2 |
| 2'F-ANA at 1 8 9 13 14 15 | 69.1 |
| 2'F-ANA at 1 2 3 5 6 8 11 14 15 | 56.2 |
| 2'F-ANA at 1 3 5 7 11 12 15 | 102 |
| 2'F-ANA at 1 2 4 6 7 11 13 14 | 49.9 |
| 2'F-ANA at 1 2 4 5 6 10 12 14 15 | 49.1 |
| 2'F-ANA at 1 4 6 7 8 10 12 13 14 | 94.8 |
| 2'F-ANA at 3 4 5 10 11 15 | 50.9 |
| 2'F-ANA at 1 3 4 5 6 9 12 13 14 15 | 112 |
| 2'F-ANA at 3 5 7 9 12 13 14 15 | 62.1 |
| 2'F-ANA at 1 3 6 10 11 | 74.1 |
| 2'F-ANA at 3 4 5 10 11 | 56.6 |
| 2'F-ANA at 2 3 4 5 6 10 11 12 14 15 | 67.2 |
| 2'F-ANA at 2 9 10 11 12 13 14 | 85.9 |
| 2'F-ANA at 1 2 5 6 7 8 9 11 12 | 102 |
| 2'F-ANA at 1 3 4 5 6 7 8 10 13 15 | 47.6 |
| 2'F-ANA at 1 3 5 6 7 9 11 12 13 | 76.6 |
| 2'F-ANA at 4 5 7 8 9 10 11 13 14 15 | 44.3 |
| 2'F-ANA at 1 2 5 6 12 15 | 104 |
| 2'F-ANA at 2 3 4 6 9 10 12 14 | 167 |
| 2'F-ANA at 1 2 3 4 5 6 12 13 15 | 78 |
| 2'F-ANA at 1 3 8 9 11 12 13 14 15 | 113 |
| 2'F-ANA at 1 2 3 6 8 9 10 11 14 | 51.3 |
| 2'F-ANA at 4 7 12 13 | 428 |

Block 4 — technique: RNA Bind-n-Seq; form: RNA; medium: in vitro; concentration: not given; relative to: input RNA pool; reading: higher = stronger binding
Target: RING finger protein unkempt homolog, zinc fingers 1-6, GST-SBP tag (UNK, Homo sapiens, UniProt Q9C0B0, residues 30-357)
Setting: RNA with constant flanks, human-mouse chimeric sites, ends assumed
Target sequence (chain): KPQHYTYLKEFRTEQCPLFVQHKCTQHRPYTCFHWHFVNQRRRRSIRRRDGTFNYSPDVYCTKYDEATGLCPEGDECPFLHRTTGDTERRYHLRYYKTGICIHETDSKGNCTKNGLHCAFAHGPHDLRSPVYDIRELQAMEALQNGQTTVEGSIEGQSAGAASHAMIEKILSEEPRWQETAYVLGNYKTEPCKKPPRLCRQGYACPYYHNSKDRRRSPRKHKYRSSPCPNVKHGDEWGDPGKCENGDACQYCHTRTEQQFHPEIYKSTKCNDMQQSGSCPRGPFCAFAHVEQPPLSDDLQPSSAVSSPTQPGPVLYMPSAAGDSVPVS
| Oligonucleotide | bound/input enrichment [ratio] |
| --- | --- |
| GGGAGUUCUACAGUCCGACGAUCUGGCGCCUGCGCUCCCCACUCGUGUUUUUAAGUGUAUUUUUAUAAGAUACAUGUAUUUACAAUUGAGCUUUUGUUACUAUAAUACUGAAUGCUACUGGAGAUUAUGAAAAAUGUUUCAAUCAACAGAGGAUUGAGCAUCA | 0.161 |
| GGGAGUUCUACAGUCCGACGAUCCCUCCCCCGGGCCACCCACCCCUCCCGGCUCCCCGCCGAGAUCCAGGUUUCUUCUUAUUUCAUAGCAAGCCAGAACAAUGUUCUACGCACAUUUUGUCCUCAGUAAACGAGGGCCUCUGGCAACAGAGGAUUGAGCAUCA | 2.04 |
| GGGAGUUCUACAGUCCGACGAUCUGACAAGGGCACUGCAGAGCCAUGCCUUUCCUUGACAUACAGAAAAAGUUCGGCCUUAACAUAGAUCGGCACUUUAUGUUCCUAAGCGCAGAACAGCCCUAUAAGAACGCCGCUCGGUGCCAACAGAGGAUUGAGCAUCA | 0.1 |
| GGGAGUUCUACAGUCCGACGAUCGAUAAGAAAAGCUUGUUGGAGACCCGCUUGCACAUCACUGGUAGAGACCUGAGGUGUCAAAUAGCUGAAACUUUCGGAUUUCAAGAAAAUUACAUCAAGAUCGUAAUAAAUAAGAAACAGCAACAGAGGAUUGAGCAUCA | 0.305 |
| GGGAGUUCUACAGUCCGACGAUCCACAGAGGAGAUCUGCUGUUCCUCACAAAUUUCCGGGAGGACCCCAUCAGAGCUGGUGAAAUAGUUGUUUUUAAAGUUGAAGGAAGAGACAUUCCGAUAGUUCACAGAGUAAUCAAGGUUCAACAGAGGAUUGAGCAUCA | 3.95 |
| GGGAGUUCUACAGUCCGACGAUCAUGGAGAAGGAUUCUCUGCCUCGCUUUGUGCGCUCUGAAUUUUAUAAGGAGUUAAUCAAGUAGUCAUCUGGUCAGGCUUCCAAAAGUUGCCCUGUGAGUUGAGUUACAUCCUUUGUAGCACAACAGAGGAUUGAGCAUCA | 0.184 |
| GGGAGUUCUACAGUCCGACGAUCAGUGUGCAGGAAUUCAUGACCUUUACAAGUCAACUGAUUGUGGAACGCUCAUCGAAAGGCAGCAGAGCUUCUGUCAAAGAACAAGACUAUCUUUGCCAUGUCUACGUCCGGAGCGACAGUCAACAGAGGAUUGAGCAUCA | 0.1 |
| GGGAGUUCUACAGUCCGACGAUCUACAUUUUAUUGUUGAGUUUCAUUUUCAUAUAUUCUUGUAGUGUCUGCUUGCCUGUGACUUCUGGUAAAAUAAGACUAGCCUUUGAAAAUAUUUUAGCAUGGUAUUUAACAUUUUCUAAACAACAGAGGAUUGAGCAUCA | 9.33 |
| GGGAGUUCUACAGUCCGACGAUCCGCUUGGAUGAGGCGGGUGUCACAGAUGAAGUGCUGGAUUCUGCCAUGCAAGCCUUCCUUCUGGAGGUCAUUGUUAAACAUGGGGAGCCGGCACCUUAUUUAUGUAACAAAGAUCCGUUUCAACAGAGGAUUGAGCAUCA | 0.0739 |
| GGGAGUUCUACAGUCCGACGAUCUUGGAAGGACCAGAGCCUAAUCAACUGAAACCACUAGUCAUACAGGCUAUGCCCACCCUAAUAGAACUAAUGAAAGACCCCAGUGUAGUUGUUCGAGACACAACAGCGUGGACUGUGGGCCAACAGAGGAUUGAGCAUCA | 0.772 |
| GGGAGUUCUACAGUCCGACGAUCCAGGGCAUCAUCUCUCGUGCUGUUAGACACCUUUUUAAGAGUAUUGAUGAGAAAAAGACCUCAGCGAUUAAAAACGGGCUGCCCCCUCCAGAUUUUAAAGUGAAUGCCCAGUUCCUAGAGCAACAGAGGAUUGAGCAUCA | 0.72 |
